Assay results pooled from the literature.
± gives the spread as reported.

| Compound | cell line | assay | setting | IC50 |
| --- | --- | --- | --- | --- |
| CCOc1cncc(-c2ccc(NC(=O)C3(c4ccnc(NS(=O)(=O)C5CC5)n4)CCOCC3)nc2)n1 | SF-268 | cell growth or viability, ATP luminescence | 72 h | 4.04 µM |
| O=C(CCCCCONC(=O)c1nc(-c2cccc([N+](=O)[O-])c2)cs1)NO | neonatal foreskin fibroblasts | cytotoxicity, sulforhodamine B | 72 h | 12 µM |
| COc1ccc(CC[C@H]2OC(=O)[C@@H]3CCCCN3C(=O)C(=O)C(C)(C)COC(=O)C=CCCN(C)C(=O)[C@H](C)NC(=O)[C@@H](Cc3ccccc3)N(C)C(=O)[C@@H]3CCCN3C(=O)[C@H](CC(C)C)N(C)C(=O)CCC(=O)Nc3cccc2c3)cc1OC | HUVEC | thymidine uptake, inhibitor | – | 0.478 ± 0.065 µM |
| Cc1ccc2c(Br)cc(Br)c([O-])c2n1.Cc1ccc2c(Br)cc(Br)c([O-])c2n1.[Co+2].c1cnc2c(c1)ccc1cccnc12 | HL-7702 normal hepatocytes | cell viability, MTT | 48 h | 63.5 ± 1.06 µM |
| CC[C@H](C)[C@H](NC(=O)C[C@H](CCCCN)NC(=O)[C@H](CCCCN)NC(=O)C[C@@H](NC(=O)[C@@H](NC(=O)C[C@H](CCCCN)NC(=O)[C@H](Cc1ccccc1)NC(=O)C[C@H](CC(C)C)NC(=O)CN)[C@@H](C)CC)[C@@H](C)CC)C(=O)N[C@@H](C)CC(=O)N[C@@H](CCCCN)C(=O)N[C@@H](CO)CC(=O)N[C@@H](Cc1ccccc1)C(N)=O | HUVEC | cytotoxicity | – | > 128 µg/mL |
| C[C@H](c1ccccc1)N1C(=O)C2=Nc3cc(Cl)ccc3CN2C1=S | CCRF-CEM | cell growth or viability, resazurin | 72 h | 0.228 µM |
| Cc1nc(N(C)c2ccc3c(c2)/C(=C/c2ccccc2)C(=O)N3C)c2ccccc2n1 | H22 | cell growth or viability, MTT | – | 3.12 µM |
| COc1ccc(CC[C@H]2OC(=O)[C@@H]3CCCCN3C(=O)C(=O)C(C)(C)COC(=O)C=CCCN(C)C(=O)[C@H](Cc3ccccc3)NC(=O)[C@@H](Cc3ccccc3)N(C)C(=O)[C@H]3CCCN3C(=O)[C@@H](CC(C)C)N(C)C(=O)CCC(=O)Nc3cccc2c3)cc1OC | HUVEC | thymidine uptake, inhibitor | – | > 20 µM |
| Cc1ccc2c(Cl)cc(Cl)c([O-])c2n1.Cc1ccc2c(Cl)cc(Cl)c([O-])c2n1.[Co+2].c1ccc(-c2ccnc3c2ccc2c(-c4ccccc4)ccnc23)cc1 | HL-7702 normal hepatocytes | cell viability, MTT | 48 h | 65.8 ± 1.77 µM |
| Cc1cnc2nc1Nc1cc(ccc1F)COC/C=C/COCc1cc(ccc1OCCN1CCCC1)N2 | HEL 92.1.7 JAK2 V617F | cell growth, CCK-8 | – | 5.32 µM |
| Cc1ccc([N+](=O)[O-])cc1S(=O)(=O)N(C)/N=C/c1cnc2ccc(Br)cn12 | UACC-62 | cell growth or viability | – | 0.362 µM |
| COc1ccnc(-c2cc(OC)ccn2)c1.Cc1ccc2c(Cl)cc(Cl)c([O-])c2n1.Cc1ccc2c(Cl)cc(Cl)c([O-])c2n1.[Co+2] | HL-7702 normal hepatocytes | cell viability, MTT | 48 h | 70.24 ± 0.63 µM |
| Cn1ncc(-c2ccc3c(=O)[nH]nc(CN)c3c2)c1-c1c(F)c(Cl)cc(OC2CC2)c1C#N | MKN-45 | cell viability, inhibitor, CellTiter-Glo | 120 h, baseline-subtracted | 0.04 µM |
| OCCCNc1c2ccccc2nc2ccccc12 | ARPE-19 | cytotoxicity, CCK-8 | 48 h | > 100 µM |
| CC(=O)Oc1ccccc1C(=O)[O][Pt]([NH2])([NH2])([Cl])([Cl])[O]C(C)=O | BCPAP | cell growth or viability, MTT | 72 h | 0.31 µM |
| COc1ccc(CC[C@H]2OC(=O)[C@@H]3CCCCN3C(=O)C(=O)C(C)(C)COC(=O)C=CCCN(C)C(=O)[C@H](CC(C)C)N(C)C(=O)[C@@H]3CCCN3C(=O)[C@@H](Cc3ccccc3)N(C)C(=O)[C@H](Cc3ccccc3)NC(=O)CCC(=O)Nc3cccc2c3)cc1OC | HUVEC | thymidine uptake, inhibitor | – | > 20 µM |
| CC[C@@H](C)N1C(=O)C2=Nc3ccccc3CN2C1=S | CCRF-CEM | cell viability, resazurin | 72 h | inactive |
| O=C(CCCCCONC(=O)c1nc(-c2ccc(Cl)s2)cs1)NO | neonatal foreskin fibroblasts | cytotoxicity, sulforhodamine B | 72 h | 2.95 µM |
| O=C(CCc1ccccc1)N1C(=O)C2(NC(c3ccc(F)cc3)C3(C(=O)Nc4ccccc43)N2Cc2ccc(F)cc2)c2ccccc21 (centres unmarked) | L02 | cell growth or viability, MTT | 48 h | 66 µM |
| N#Cc1c(N)nc2c(c1-c1cccs1)Cc1cc(O)ccc1-2 | HuT78 | cell growth or viability, ATP luminescence | – | 31.4 µM |
| Cc1nc(N(C)c2ccc3c(c2)/C(=C/c2cn(C)c4ccccc24)C(=O)N3C)c2ccccc2n1 | H22 | cell growth or viability, MTT | – | 12.8 µM |

| Compound | cell line | assay | setting | IC50 |
| --- | --- | --- | --- | --- |
| Cc1cc([C@H](C(=O)N2C[C@H](O)C[C@H]2C(=O)N[C@@H](CC(=O)N2CCC(N3CCC(C#Cc4ccc(C(=O)N[C@H]5C(C)(C)[C@H](Oc6ccc(C#N)c(Cl)c6)C5(C)C)cc4)CC3)CC2)c2ccc(-c3scnc3C)cc2)C(C)C)on1 | MDA-MB-453 | cell growth or viability, CCK-8 | 7 days | 0.23 µM |
| CNS(=O)(=O)Nc1nccc(Cc2c(C)c3ccc(Oc4ncccc4F)cc3oc2=O)c1F | KMS-26 | cell viability | 7 days | 0.145 µM |
| CC[C@H](C)[C@H](NC(=O)[C@H](CCCCN)NC(=O)C[C@H](Cc1ccccc1)NC(=O)[C@H](CC(C)C)NC(=O)CN)C(=O)N[C@H](CC(=O)N[C@@H](CCCCN)C(=O)N[C@@H](CCCCN)C(=O)N[C@H](CC(=O)N[C@@H](CC(C)C)C(=O)N[C@@H](CCCCN)C(=O)N[C@H](CC(=O)N[C@@H](Cc1ccccc1)C(N)=O)CC(C)C)[C@@H](C)CC)[C@@H](C)CC | HUVEC | cytotoxicity | – | 6.7 µg/mL |
| CC(C)CCC[C@@H](C)[C@H]1CC[C@H]2[C@@H]3CC=C4C[C@@H](OC(=O)NCCCN(C)CCCN5c6ccc(Cl)cc6N=C(N6CCN(C)CC6)c6ccccc65)CC[C@]4(C)[C@H]3CC[C@]12C | ARPE-19 | cytotoxicity, CCK-8 | 48 h | > 100 µM |
| COc1ccc(CC[C@H]2OC(=O)[C@@H]3CCCCN3C(=O)C(=O)C(C)(C)COC(=O)C=CCCN(C)C(=O)CN(C)C(=O)[C@H]3CCCN3C(=O)[C@H](Cc3ccccc3)N(C)C(=O)[C@H](Cc3ccccc3)NC(=O)CCC(=O)Nc3cccc2c3)cc1OC | HUVEC | thymidine uptake, inhibitor | – | 0.44 ± 0.1 µM |
| Cc1nc(=S)[nH]c(C)c1/N=N/c1nnc(S)s1 | Vero | MTT | 72 h | 20.9 ± 1.73 µg/mL |
| O=C1C2=Nc3ccccc3CN2C(=S)N1[C@H]1CCCc2ccccc21 | CCRF-CEM | resazurin | 72 h | 25.1 ± 9.15 µM |
| CNC(NN=Cc1ccc([N+](=O)[O-])o1)=[S+][Au-][Cl] | IMR-90 | cell growth or viability, resazurin | – | > 100 µM |
| O=C1/C(=N\c2ccccc2Br)c2ccccc2N1Cc1ccc([N+](=O)[O-])cc1 | L02 | cell growth or viability, MTT | 48 h | 56 µM |
| C[C@H](c1ccccc1)N1C(=O)C2=Nc3ccccc3CN2C1=S | CCRF-CEM | cell growth or viability, resazurin | 72 h | 0.516 µM |
| Cc1ccc(CN2C3(NC(c4ccc(C)cc4)C24C(=O)Nc2ccccc24)C(=O)Nc2ccccc23)cc1 (centres unmarked) | L02 | cell growth or viability, MTT | 48 h | 35.7 µM |
| NC(=O)c1ccc(-c2ccccc2Cl)c2c3c([nH]c12)CC[C@H](N)C3 | HGC-27 | cell growth or viability | – | 0.0216 µM |
| CN(C)CCOc1cc(NC(=O)c2cccc(C(=O)Nc3cc(OCCN(C)C)c4ccccc4n3)n2)nc2ccccc12 | U2OS | cell growth or viability, ATP luminescence | 72 h | 2.3 µM |
| COc1ccc(CC[C@H]2OC(=O)[C@@H]3CCCCN3C(=O)C(=O)C(C)(C)COC(=O)C=CCCN(C)C(=O)[C@H](CC(C)C)N(C)C(=O)[C@H]3CCCN3C(=O)[C@H](Cc3ccc(I)cc3)NC(=O)[C@H](c3ccccc3)NC(=O)CCC(=O)Nc3cccc2c3)cc1OC | HUVEC | thymidine uptake, inhibitor | – | 0.063 ± 0.017 µM |
| C=CC(=O)N1CCCC(n2c(=O)c3ncccc3n(Cc3ccc(Oc4ccccc4)cc3)c2=O)C1 (centres unmarked) | BCL1 | cell growth or viability, MTT | 72 h | 3.5 µM |
| CC(C)N1C(=O)C2=Nc3ccccc3CN2C1=S | CCRF-CEM | cell growth or viability, resazurin | 72 h | 22 µM |
| CC(C)c1ccc(N(C)c2ccc3c(c2)OCC[C@H]3CNc2cnccc2C(=O)O)cc1 | COLO-320-HSR | cell growth or viability, ATP luminescence | 7 days | 0.00461 µM |
| COc1ccc(CC[C@H]2OC(=O)[C@@H]3CCCCN3C(=O)C(=O)C(C)(C)COC(=O)C=CCCN(C)C(=O)[C@H](CC(C)C)N(C)C(=O)[C@H]3CCCN3C(=O)[C@H](Cc3ccccc3)N(C)C(=O)[C@H](Cc3ccc(OC(C)(C)C)cc3)NC(=O)CCC(=O)Nc3cccc2c3)cc1OC | HUVEC | thymidine uptake, inhibitor | – | > 20 µM |
| COc1cc(C(=O)N/N=C/c2cccc3ccccc23)cc(OC)c1OC | RS4-11 | cell growth or viability, MTT | 48 h | 0.0423 µM |
| O=C1C(Br)=C(Br)C(=O)c2ccccc21 | MOLT-3 | cell growth or viability, XTT | – | 3.29 µM |

Some of these lines once more:
| Compound | cell line | assay | setting | IC50 |
| --- | --- | --- | --- | --- |
| Cc1ccc([N+](=O)[O-])cc1S(=O)(=O)N(C)/N=C/c1cnc2ccc(Br)cn12 | UACC-62 | cell growth or viability | – | 0.362 µM |
| COc1ccnc(-c2cc(OC)ccn2)c1.Cc1ccc2c(Cl)cc(Cl)c([O-])c2n1.Cc1ccc2c(Cl)cc(Cl)c([O-])c2n1.[Co+2] | HL-7702 normal hepatocytes | cell viability, MTT | 48 h | 70.24 ± 0.63 µM |
| Cn1ncc(-c2ccc3c(=O)[nH]nc(CN)c3c2)c1-c1c(F)c(Cl)cc(OC2CC2)c1C#N | MKN-45 | cell viability, inhibitor, CellTiter-Glo | 120 h, baseline-subtracted | 0.04 µM |
| OCCCNc1c2ccccc2nc2ccccc12 | ARPE-19 | cytotoxicity, CCK-8 | 48 h | > 100 µM |
| CC(=O)Oc1ccccc1C(=O)[O][Pt]([NH2])([NH2])([Cl])([Cl])[O]C(C)=O | BCPAP | cell growth or viability, MTT | 72 h | 0.31 µM |
| COc1ccc(CC[C@H]2OC(=O)[C@@H]3CCCCN3C(=O)C(=O)C(C)(C)COC(=O)C=CCCN(C)C(=O)[C@H](CC(C)C)N(C)C(=O)[C@@H]3CCCN3C(=O)[C@@H](Cc3ccccc3)N(C)C(=O)[C@H](Cc3ccccc3)NC(=O)CCC(=O)Nc3cccc2c3)cc1OC | HUVEC | thymidine uptake, inhibitor | – | > 20 µM |
